# Experimental data collected from several papers.
# ± gives the spread as reported.
SMILES,assay,test system,setting,how to read,quantity,result
CC[C@H](C)C(=O)N1CCC(NC(=O)Nc2ccc(OC(F)(F)F)c(F)c2)CC1,,"human, fed, plasma","oral, 8 mg, single dose tablet, geometric mean",,AUC(0-48h),1930 ng·h/mL
C[C@@H](O)[C@H](NC(=O)[C@H](CCCCN)NC(=O)COCCN)C(=O)N[C@@H](CCCNC(=N)N)C(=O)NC(C)(C)C(=O)N[C@@H](CCCNC(=N)N)C(=O)NC(C)(C)C(=O)N[C@H](C(=O)N[C@@H](CO)C(=O)N[C@@H](Cc1c[nH]cn1)C(=O)N[C@@H](Cc1ccc(O)cc1)C(=O)NCC(=O)O)[C@@H](C)O,,"C57BL/6 mouse, blood","intravenous, 50 mg/kg, 10 h",,alkaline phosphatase,100 to 214 U/L
CC(C)[C@H](NC(=O)[C@@H](NC(=O)[C@H](CCCNC(=N)N)NC(=O)[C@H](CCCNC(=N)N)NC(=O)[C@H](CCCNC(=N)N)NC(=O)[C@H](CCC(N)=O)NC(=O)[C@H](CCCNC(=N)N)NC(=O)[C@H](CCCNC(=N)N)NC(=O)[C@H](CCCCN)NC(=O)[C@H](CCCCN)NC(=O)[C@H](CCCNC(=N)N)NC(=O)CN)[C@@H](C)O)C(=O)N[C@H](C(=O)N[C@@H](CO)C(=O)N1CCC[C@H]1C(=O)O)[C@@H](C)O,,mouse ICR,"intranasal, high dose daily, 4 weeks, outcome decreased",baseline: vehicle,brain weight,decreased
COc1cc2ccnc(Cc3ccc(O[11CH3])c(OC)c3)c2cc1OC,,"Sprague-Dawley rat, brain stem","intravenous, 5 min",,tissue uptake,0.183 ± 0.028 %ID/g
CC(C)C[C@H](NC(=O)[C@H](Cc1ccc(O)cc1)NC(=O)[C@H](Cc1c[nH]cn1)NC(=O)[C@H](CCCCN)NC(=O)[C@H](CC(C)C)NC(=O)[C@H](C)NC(=O)[C@H](CC(C)C)NC(=O)[C@H](CCCCN)NC(=O)CNC(=O)[C@@H](NC(=O)[C@@H](NC(=O)[C@H](CCCCN)NC(=O)[C@@H](NC(=O)[C@H](CCC(=O)O)NC(=O)[C@H](C)NC(=O)[C@H](CCCCN)NC(=O)[C@H](CCCCN)NC(=O)[C@H](CC(C)C)NC(=O)[C@H](CC(C)C)NC(=O)[C@@H](NC(=O)[C@H](CCCNC(=N)N)NC(=O)[C@H](Cc1c[nH]c2ccccc12)NC(=O)CN)[C@@H](C)O)C(C)C)[C@@H](C)O)C(C)C)C(N)=O,,zebrafish embryos,"1 h, 4, 28, 52 hpf",,acute toxic concentration,25 µg/mL
COc1ccnc(-c2cc(OC)ccn2)c1.O.[C-]#[O+].[C-]#[O+].[C-]#[O+].[Re+],"RP-HPLC C18 column, measured: MeCN adduct","MeCN:water 40:60, 0.1% TFA",isocratic elution,,capacity factor,7.2
CC1N=C(c2ccccc2F)c2cc(Br)ccc2-n2cnc(C(=O)OC3OC(CO)C(O)C(O)C3O)c21 (stereo not shown),LC-MS/MS,"Swiss Webster mouse, female, urine","intravenous, 250 µg parent drug, 24 to 48 h",,cumulative excretion,2 ± 0.7%
CC[C@H](C)[C@H](N)C(=O)N[C@H](C(=O)NCC(=O)N[C@H](C(=O)N[C@H](C(=O)N[C@@H](CC(=O)O)C(=O)N[C@@H](CO)C(=O)N[C@@H](CC(C)C)C(=O)N[C@H](C(=O)N[C@@H](CCCCN)C(=O)N[C@@H](Cc1c[nH]c2ccccc12)C(=O)N[C@H](C(=O)N[C@H](C(=O)N[C@@H](CC(=O)O)C(=O)N[C@H](C(=O)N[C@H](C(=O)N[C@@H](CC(N)=O)C(=O)N[C@@H](CCCCN)C(=O)N[C@@H](Cc1ccccc1)C(=O)N[C@H](C(=O)N[C@@H](CCCCN)C(=O)N[C@@H](CCCCN)C(=O)O)[C@@H](C)O)C(C)C)[C@@H](C)O)[C@@H](C)CC)[C@@H](C)CC)C(C)C)[C@@H](C)CC)[C@@H](C)O)[C@@H](C)CC,circular dichroism,POPC vesicles,pH 7.5,,fractional helicity,0.81
CC(C)[C@H](NC(=O)CNC(=O)[C@H](CCC(N)=O)NC(=O)[C@H](C)N)C(=O)O,,healthy male volunteers,"intravenous, 45 mg/kg/h, 2 h, with: LPS 2 ng/kg",,subjects with any AE,25%
CC(C)[C@H](NC(=O)CNC(=O)[C@H](CCC(N)=O)NC(=O)[C@H](C)N)C(=O)O,,human,"continuous infusion, dose not given",,subjects with adverse events,44%

# A few entries again:
SMILES,assay,test system,setting,how to read,quantity,result
C[C@@H](O)[C@H](NC(=O)[C@H](CCCCN)NC(=O)COCCN)C(=O)N[C@@H](CCCNC(=N)N)C(=O)NC(C)(C)C(=O)N[C@@H](CCCNC(=N)N)C(=O)NC(C)(C)C(=O)N[C@H](C(=O)N[C@@H](CO)C(=O)N[C@@H](Cc1c[nH]cn1)C(=O)N[C@@H](Cc1ccc(O)cc1)C(=O)NCC(=O)O)[C@@H](C)O,,"C57BL/6 mouse, blood","intravenous, 50 mg/kg, 10 h",,alkaline phosphatase,100 to 214 U/L
